{"data": "Published values from different studies", "note": "Parts stem from different laboratories: compare values within a part only."}
{"data": "Set 1", "target": "Ras GTPase-activating protein-binding protein 1, full length (G3BP1, Homo sapiens, UniProt Q13283)", "technique": "RNA Bind-n-Seq", "molecule type": "RNA", "matrix": "in vitro", "tested at": "200 nM", "notes": "whole 134-nt RNA, ends assumed", "together with": "150 mM LiCl", "relative to": "input library", "reading": "higher = stronger binding", "library": "7-deaza-guanosine replaces G", "all sequences stand within": "GGGAGUUCUACAGUCCGACGAUC … UGGAAUUCUCGGGUGUCAAGG", "sequence of UniProt Q13283 (whole entry, looked up)": "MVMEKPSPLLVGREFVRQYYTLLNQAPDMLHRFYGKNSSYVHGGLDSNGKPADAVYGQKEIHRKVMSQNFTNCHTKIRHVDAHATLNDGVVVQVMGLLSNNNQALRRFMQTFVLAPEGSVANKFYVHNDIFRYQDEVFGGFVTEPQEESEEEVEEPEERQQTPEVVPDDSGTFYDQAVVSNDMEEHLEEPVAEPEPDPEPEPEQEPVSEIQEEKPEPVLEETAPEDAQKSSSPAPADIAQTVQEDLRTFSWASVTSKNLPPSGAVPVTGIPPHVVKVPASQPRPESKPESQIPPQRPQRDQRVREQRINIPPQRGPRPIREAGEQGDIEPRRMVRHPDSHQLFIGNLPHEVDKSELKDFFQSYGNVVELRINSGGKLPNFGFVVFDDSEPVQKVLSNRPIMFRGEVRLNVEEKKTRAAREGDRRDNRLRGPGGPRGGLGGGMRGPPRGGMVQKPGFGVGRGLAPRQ"}
{"Sequence": "AAGUCCUGUGCUACACAUCGUAUGUACCGAAUCGGGUUUUGGUUUUGGUUUUGGGGAAAGUAUUAUGUUACGCCGUUCGGAUCUGCACUU", "log2 enrichment": -0.638}
{"Sequence": "UCCUGUGCUACACAUCGUAUGUACCGAAUCGGGGAGGGGUUUUUUUGGGGUUUUUGGGGAAAGUAUUAUGUUACGCCGUUCGGAUCUGCA", "log2 enrichment": 0.89}
{"Sequence": "GUCCUGUGCUACACAUCGUAUGUACCGAAUCGGGGAAAAAGGGGAAAAAGGGAAAAAGGAAAGUAUUAUGUUACGCCGUUCGGAUCUGCA", "log2 enrichment": 0.0344}
{"Sequence": "CAAGUCCUGUGCUACACAUCGUAUGUACCGAAUCGGGGCCCGGGCCCGGGCCCGGAAAGUAUUAUGUUACGCCGUUCGGAUCUGCACUUC", "log2 enrichment": -1.76}
{"Sequence": "AAGUCCUGUGCUACACAUCGUAUGUACCGAAUCGGCCCCGGGGCCCCGGGCCCCGGAAAGUAUUAUGUUACGCCGUUCGGAUCUGCACUU", "log2 enrichment": -1.05}
{"Sequence": "CCUGUGCUACACAUCGUAUGUACCGAAUCGGGGAAAAAGGGGUUUGGGGAAAAAAAGGGGAAAGUAUUAUGUUACGCCGUUCGGAUCUGC", "log2 enrichment": -0.566}
{"Sequence": "GCAGGAAGUAAAAACAAAUGGGAAUGCUUCGGAUAGUGGCAGGGGUGGGGGUUGCUAAGGAAAGGGUGGGAUGGGAGUGGGUAAAGAGUU", "log2 enrichment": 0.17}
{"Sequence": "ACCGUGCAGGUGGGCAUCUUUGGGAAGUGGGGCAAGGGGGGGAUAGGGAGGGGGGUAACACUUUGGGAACAGGUGGUCCCAGGUCGUUUC", "log2 enrichment": 0.317}
{"Sequence": "CUGUGCUACACAUCGUAUGUACCGAAUCGGGUUUUUUUGGGAAAAAAAGGGUUUUUUUGGGAAAGUAUUAUGUUACGCCGUUCGGAUCUG", "log2 enrichment": -2.4}
{"Sequence": "CUGUGCUACACAUCGUAUGUACCGAAUCGGGGAAAAAAAGGAAAAAAAGGGAAAAAAAGGGGAAAGUAUUAUGUUACGCCGUUCGGAUCU", "log2 enrichment": 0.375}
{"Sequence": "UUCUCUCUCUCCCUUUGCAGCCGCUGUACAACCAGCCCUCCGACACCCGGCAGUAUCAUGAGAACAUCAAAAUGUGAGUGCUCGCGGGCA", "log2 enrichment": 1.41}
{"data": "Set 2", "target": "RNA binding protein fox-1 homolog 2, RRM domain, GST-SBP tag (RBFOX2, Homo sapiens, UniProt O43251-10, residues 100-194)", "technique": "RNA Bind-n-Seq", "molecule type": "RNA", "matrix": "in vitro", "tested at": "365 nM", "notes": "natural RNA segment, single round, ends assumed", "relative to": "no-protein control", "reading": "higher = stronger binding", "all sequences stand within": "GGGAGUUCUACAGUCCGACGAUC … UGGAAUUCUCGGGUGCCAA", "Residues (chain)": "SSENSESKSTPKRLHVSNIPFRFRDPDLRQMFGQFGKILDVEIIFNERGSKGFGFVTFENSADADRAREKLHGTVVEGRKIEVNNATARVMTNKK"}
{"Sequence": "AGUGCUUUGAAAAGUUUAGAUUAUACAUGUGUGACAGAUGCGGCAUAUUUGCUCUAUUAACACAGAGGCUUACUAUAGAAAUCUAAAGUCAAUGCUGUACAUCCAUCCAG", "RBNS enrichment (R)": 0.451}
{"Sequence": "GCUCCUCUGCCACCCGUGACCCCGUGACGUGAUGGGGCCAGGUAACGGGCCGGGCAGUGGUGAGGUCACUGUGAAUGGAGGUUUGUUUCCCAUGAGAUCGGACACUGUCC", "RBNS enrichment (R)": 0.693}
{"Sequence": "AAAGGCUUUUUCCCCGCCUUUGGUUGUUAACGGCAUUCCUGAAAGCCACAUGUGUUUAUUCAUUGGGCUUGUUCUUAUCAGCAAAUAGGUUUUCUGGUUUUAUGACUUUU", "RBNS enrichment (R)": 0.331}
{"Sequence": "UGUUUUAUAUUCUUUUGUAGUAAAACAACAUAACUCAGAUUUCUACAGGAGACAGUGGUUUUAUUCGGAUUGUCUUCUGUAAUAGGUUUCAAUAAAGCUGGAUGAACUUA", "RBNS enrichment (R)": 0.276}
{"Sequence": "UCUGGCUUCCUGGUAGAGGGCGGCAUGCCGAAGGGUCUGCUGGGUGUGGAUUGGAUGCUGGGGUGUGGGGGUUGGAAGCUGUCUGUGGCCCACUUGGGCACCCACGCUUC", "RBNS enrichment (R)": 0.93}
{"Sequence": "AGUACUAAAAUCUGUCAAGUGUUUUCAGUAUAGCACAUUAUUUACUGAGUGCCAGUUGUAAAUGUUUUUCAACCAGCACCUAAAAAGACUCUUUUCAAAAAAUCACAGAA", "RBNS enrichment (R)": 1.08}
{"Sequence": "GCCACAGACAGCACAAGAUGUUCACACUAAAGAGAGAGAAGGUGGCUUUUUAUAUGUUAUGUUUUAUACCCAGUAACAAGUGAAUAAACCUCUUUAUAUUUGCACAAGGA", "RBNS enrichment (R)": 0.915}
{"Sequence": "UUUGACCCCUGGAGUGGUGGGUCUCAUCUUUCCCAUCUCGCCUGAGAGCGGCUGAGGGCUGCCUCACUGCAAAUCCUCCCCACAGCGUCAGUGAAAGUCGUCCUUGUCUC", "RBNS enrichment (R)": 0.4}
{"Sequence": "CCUCACAGCCCGACACGCCCUGCUGAGGCAGACGAAUGACAUUAAGUUCUGAAGCAGAGUGGAGAUAGAUUAGUGACUAGAUUUCCAAAAAGAAGGAAAAAAAAGGCUGC", "RBNS enrichment (R)": 3.27}
{"Sequence": "UAUAAUGCUUUAUACUUUGCCAGGAAGAAGUAUAGCUAUAGUUGAGGUGUACCUAAGAAAUUAGCAAGAAUGGAUCUGCGUCUCAGCUCAGCAGAACUAUAGCCAAUGUU", "RBNS enrichment (R)": 3.43}
{"Sequence": "UGCUUGAGGCUAGCCCAGUGAAAAAAACCAGAGACUCAUGUUUCCAGGGGUCAGUCUGUCAGGCAGGAAGGACCCAGGAUUUGAACCCAGCUUCAGUGUGCAGGCUCUGA", "RBNS enrichment (R)": 0.461}
{"Sequence": "CACUUGCUGUCCGGUUUCCUAGGGGCUUCCUGUGCCCCUUCCCCAGCUAUCCUCCAGGUGGCUAGGGACAGUCUAUUCUGCUGCAACUGGAAAGUAGAGGGAACCGGCAC", "RBNS enrichment (R)": 0.322}
{"data": "Set 3", "target": "Histone acetyltransferase KAT6A, both winged helices, GST fusion (KAT6A, Homo sapiens, UniProt Q92794, residues 1-181)", "technique": "protein binding microarray", "molecule type": "double-stranded DNA, one strand shown", "matrix": "in vitro", "tested at": "not given", "notes": "8-mer, flanks averaged, mean of 2 arrays, mostly near background", "relative to": "not given", "reading": "higher = stronger binding", "Residues (chain)": "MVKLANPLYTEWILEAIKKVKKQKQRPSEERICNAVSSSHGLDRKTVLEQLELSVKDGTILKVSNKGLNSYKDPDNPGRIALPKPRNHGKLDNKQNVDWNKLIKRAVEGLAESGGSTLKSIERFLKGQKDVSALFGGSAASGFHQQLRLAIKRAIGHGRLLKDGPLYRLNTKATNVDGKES"}
{"Sequence": "CCGAATGC", "E-score": 0.201}
{"Sequence": "CAGGATGG", "E-score": -0.0402}
{"Sequence": "CGCATGCC", "E-score": 0.217}
{"Sequence": "CGTTTCAG", "E-score": 0.17}
{"Sequence": "CTCTGTTA", "E-score": -0.12}
{"Sequence": "AACGGCAT", "E-score": 0.293}
{"Sequence": "ATCTTACG", "E-score": 0.0838}
{"Sequence": "CACCGCTA", "E-score": 0.151}
{"Sequence": "TGGGGGAA", "E-score": -0.176}
{"Sequence": "ATGAGCGC", "E-score": 0.271}
{"Sequence": "GTCTTTGA", "E-score": -0.049}
{"Sequence": "ATAAACAC", "E-score": 0.0191}
{"Sequence": "ATGAAGTG", "E-score": -0.0865}
{"Sequence": "AACTTTAG", "E-score": -0.00724}
{"Sequence": "AGAGCGGG", "E-score": 0.193}
{"Sequence": "AGGACAGA", "E-score": -0.189}
{"Sequence": "CTCGCCGA", "E-score": 0.216}
{"Sequence": "AATAGTGC", "E-score": 0.157}
{"Sequence": "GTACGGAA", "E-score": 0.218}
{"Sequence": "CCAAGATA", "E-score": -0.15}
{"Sequence": "CTCGCCAG", "E-score": -0.0247}
{"Sequence": "CTTATACA", "E-score": -0.057}
{"data": "Set 4", "target": "Hepatocyte nuclear factor 3-alpha (Foxa1, Mus musculus, UniProt P35582, residues 1-468, full length assumed)", "technique": "EMSA with sequencing", "molecule type": "double-stranded DNA, one strand shown", "matrix": "in vitro", "tested at": "10 and 20 nM", "notes": "whole designed probe, mean of two concentrations, ends assumed", "relative to": "negative control set to 0", "reading": "higher = stronger binding", "all sequences stand within": "GTGAGCGGTGCCCATTGATGGGGAAC … TTTCACTGGGATCGTGGGGAC", "Residues (chain)": "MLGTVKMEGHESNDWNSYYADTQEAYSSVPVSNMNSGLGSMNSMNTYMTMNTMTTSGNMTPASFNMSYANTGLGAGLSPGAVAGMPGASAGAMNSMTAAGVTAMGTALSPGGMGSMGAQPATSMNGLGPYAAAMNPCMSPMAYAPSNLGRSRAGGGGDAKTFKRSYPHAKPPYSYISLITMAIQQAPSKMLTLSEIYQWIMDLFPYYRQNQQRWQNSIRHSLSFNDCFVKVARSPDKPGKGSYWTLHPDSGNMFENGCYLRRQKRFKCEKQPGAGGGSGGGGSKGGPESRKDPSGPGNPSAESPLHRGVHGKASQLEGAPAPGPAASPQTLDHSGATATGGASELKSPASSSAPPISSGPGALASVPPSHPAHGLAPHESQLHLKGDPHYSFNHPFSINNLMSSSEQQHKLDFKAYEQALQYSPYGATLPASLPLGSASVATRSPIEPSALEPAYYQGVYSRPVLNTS"}
{"Sequence": "TAAAAGTGTCAATTCTCAGGCATTTATAATGTATAGAATAATATATCAGGGAGAGGTAATTTTGGTGAATACATCAGTAAGTTTAGATTCCGTGTTTACTTTGTAGATTGCTCGTGTTTAAAGATGTATAGTTGTATAAAGTAATAGACATTTTCATTTGAATTTTAGAATATAATTGCATTACTACTTATTA", "normalised bound fraction": "0.416 ratio"}
{"Sequence": "ACAGCCCCAGCTGACCTGGGGAAGTGCATGTCAGCATCCTGCTTCATTAGGACACCTCCAAGCCCAGCTTAGACCTGGATTCCAGGTGACCCCCTGTTTACTCTGAGCCCAGACAGAGGACAGAGAAGTGTGCAAGGGTGGGGACCCTCATCACAGCCCTTGACTCTGTAAGGCATATGGGTTTGTGCACGTG", "normalised bound fraction": "0.114 ratio"}
{"Sequence": "GGCCTTTCAATATGCTATAGTGTCTATCAGTTTCTTTTAGGCTTATTCTATCACAATTTTCATTCTCTATTAATCCCCTAAGTGTCTCTATAAGTAAATAACTAGATTATTTGGAAAGTTGCTGTTTAAAGAACTACTTGTAAGTTCAAGTGGCCTTTGGAGTGTGAATAAGTACCCATAATTCATCTATGAT", "normalised bound fraction": "0.243 ratio"}
{"Sequence": "CTCCAGGGTAGTTGTCCTTCCTGTGGCTGCTCACTGATCCAGGCTACTTTGATCTTGTGACTCAAAGTTCAACAAAATGTGGATGCGTCATTTAAATTACACTTCAATGGCCAGAACTTACGAAATGGCCTCATCCAGTTGCAAGAAGTTTGGGAAATGTAGCCTTCCATATTTACAGGAATAAATGAAAAAC", "normalised bound fraction": "0.0319 ratio"}
{"Sequence": "CTAGCTCCAGTCTTAGCATGGCAATTTCTTCCCGCAACATACTATTTTCATGCAAGAAGTCTCTTTCTTTCTTACAACTAAGAGAAAGCTAAGTAAACAAAGAGAACTTTTAGTTAGCACTCAATAGATTGACATAACATGATTTCTTTTGAAATTCAAAAATAACATGTATTTGTATAATGAAAGAATCCCC", "normalised bound fraction": "0.498 ratio"}
{"Sequence": "GTCAAAAAAATATATATATGGTAAATTTGAAGAATGGTTAAAGAAGTGGGTGAACAGCCTTGGCATTTTCTCAACACTATAATTTTTTTGGTTGTTTACTTTGTTTTTTCTTGTAATTAAGTAATAATAAAAAGTTCAATAACAACAGCTCACTTTTTTGAAGAATGGTTAAAGAAGTGGGTGAGCAGCCTTG", "normalised bound fraction": "0.367 ratio"}
{"Sequence": "TGAGGCCATTAATTATAGTGAGACGTATTATAAGATTATTTTCTTCTCCTTTGAGTACTATTTTCATCTCCTTCAAGTTTTTTCTTTCCAGATAGATTATTCTGTTCTCTGTGCTTCATGACAGGTCCTTTCCCACATGGCTTGATGTGTGGCTGGCTGTTCATTTTTAGGAGTGAGGCATTATAAACAGGCC", "normalised bound fraction": "-0.061 ratio"}
{"Sequence": "TTATTTTAATGCATGCATTAATTCTCCTTTTCATCTCACTGCCTGCCAGAAAATTGGTTGTACAAGCGTTCAAGGCATTTTCCCTGGACCAGAAAATTACACAGGAGTACTGAGATGACATTATGTGGCTTCGGATTTCAGCGGGCAGGCTGATGCCTCTTGGGACATGTAAGTGCAGAAGGCAAGGCCTGCC", "normalised bound fraction": "-0.0471 ratio"}
